Experimental data pooled from the literature.
Each line is one published result; not all experiments were run side by side. “And” joins repeats or separate records; there may be more than shown. ± gives the spread as reported.

CC(=O)Nc1ccc(OC(=O)CCC(=O)[O][Pt-2]23([O]C(=O)CCC(=O)Oc4ccc(NC(C)=O)cc4)([NH2+][C@@H]4CCCC[C@H]4[NH2+]2)[O]C(=O)C(=O)[O]3)cc1  IFN-alpha level (4T1; supernatant; concentration not given, 24 h; baseline: untreated): 2.1 fold
C=C1[C@H](O)CC(=C/C=C2\CCC[C@]3(C)[C@@H]([C@@H](C)CCCCO)CC[C@@H]23)C[C@H]1O  EC50 ratio (HL-60; cell differentiation, NBT reduction; baseline: compound over 1α,25-dihydroxyvitamin D3): 1.5
CCC12CCc3c(c4ccccc4n3C)CCN(CC3OC31)C2 (stereo not drawn)  IL-6 level (BV-2; ELISA; 25 µM, with: LPS; baseline: LPS alone): < 8.8%
CCc1ccc(-c2cn([C@@H]3O[C@H](CO)[C@@H](O)[C@H]3O)c3ncnc(N)c23)cc1  EC50 (HEK; cytotoxicity): > 200 µM
COc1cc(CNC(=O)C[C@H](C)CCC=C(C)C)ccc1OCc1cn(-c2ccc(Br)cc2)nn1  growth percent (OVCAR-3 ovarian cancer cells; SRB; 10 µM, 48 h): 105%
CC(=C(c1ccc(Cl)cc1)c1ccc(OCCN2CCCC2)cc1)c1ccc(Cl)cc1  growth inhibition (NCI-60 tumour cell lines; 10 µM, mean over cell lines): 21.6%
O=C(NCCCCc1ccccc1)n1c(=O)oc2cc(-c3ccc(F)cc3)ccc21  sphingosine level (SW-403 and RAW264.7; 0.1 to 20 µM, 3 h): decreased
O=Cc1c(O)ccc2ccccc12  log2 fold change (HUVEC; RNA sequencing, refers to: DIPK2B; 75 µM, 24 h; baseline: DMSO): -3.73
COc1cc(CNC(=O)C[C@H](C)CCC=C(C)C)ccc1OCc1cn(-c2ccc(Cl)cc2Cl)nn1  growth percent (SF-295 CNS cancer cells; SRB; 10 µM, 48 h): 41.8%
O=[N+]([O-])c1ccc(C=[N+]2N=C(Nc3ccccc3)[S][Pd-]2([Cl])[Cl])s1  cytotoxic concentration (HEL human lung fibroblasts; altered cell morphology, microscopy; confluent cultures): ≥ 100 µM
CC(=NN=c1sc(C(=O)c2ccccc2)nn1-c1ccccc1)c1ccc(S(=O)(=O)N2CCC(C)CC2)cc1  apoptotic cells late (HepG2; annexin V/PI staining; IC50, 72 h): 13.9%
CC(=O)O[C@@H]1CC[C@@]2(C)C(CC[C@]3(C)C2C(=O)C=C2C4[C@@H](C)[C@H](C)CC[C@]4(C)CC[C@]23C)[C@@]1(C)C(=O)OCC(=O)Oc1cc(C)ccc1C(C)C (stereo partly drawn)  MDA level (HepG2; 1 µM, acetaminophen-induced injury, with: 10 mM acetaminophen): 8.2 nmol/mg
C=CC(=O)Nc1cc(Nc2nccc(-c3c(-c4cccc(F)c4)n(C)c4ccccc34)n2)c(OC)cc1N(C)CCN(C)C  protein level (H1975; Western blot, refers to: cleaved caspase-3; concentration not given, 24 h): increased
CCC(=C(c1ccc(Cl)cc1)c1ccc(OCCN2CCCCC2)cc1)c1ccccc1  growth inhibition (NCI-60 tumour cell lines; 10 µM, mean over cell lines): 22.8%
CNC(=O)c1ccccc1Oc1nc(Nc2cc(OC)c(OC)c(OC)c2)ncc1Br  ERK phosphorylation (C2C12 myotubes; immunoblot, refers to: phospho-ERK; 5 µM): inhibited
Cc1ccc(CNS(=O)(=O)c2cccc(/C=C/C(=O)NO)c2)cc1  relative potency (MOPC-315; cell growth; 24 h; baseline: belinostat): 1.91
CC(C)=CCc1c(O)cc2c(c1O)C(=O)OC2  glucose consumption (HepG2, palmitic acid-induced insulin resistance; 2.5 µM, 24 h): 8.96 ± 0.9 mM
COc1cc(CNC(=O)C[C@H](C)CCC=C(C)C)ccc1OCc1cn(-c2ccc([N+](=O)[O-])cc2)nn1  growth percent (HCC 2998; SRB; 10 µM, 48 h): 107%
Nc1ncnc2c1c(-c1cccc(F)c1)cn2[C@@H]1O[C@H](CO)[C@@H](O)[C@H]1O  EC50 (HEK; cytotoxicity): > 200 µM
C[n+]1cn(C2OC(COP(=O)([O-])OP(=O)(O)OP(=O)(O)OCC3OC(n4cnc5c(=O)[nH]c(N)nc54)C(O)C3O)C(O)C2O)c2nc(NCc3cc(-c4ccccc4)no3)[nH]c(=O)c21 (stereo not drawn)  relative protein expression (HEK293 transfected with capped mRNA; luciferase expression; baseline: m7GpppG-capped mRNA): 1.64 and 1.6
Cc1cc(O)c2c(C(=O)[O-])[n+]3n(c2c1)CCCC3  glucose consumption (HepG2, palmitic acid-induced insulin resistance; 2.5 µM, 24 h): 6.75 ± 0.51 mM
CC[C@H](C)[C@H](NC(=O)[C@@H](NC(=O)[C@@H](N)C(C)C)C(C)C)C(=O)N[C@@H](C)C(N)=O  viability (PC-12; Aβ42-induced neurotoxicity, inhibitor, MTT; concentration not given, 6 h, 37 °C, peptide to Aβ42 1:2, with: Aβ42 2 µM; baseline: untreated cells): 89.3%
N#Cc1[nH]nnc1-c1cccc(Oc2ccccc2)c1  TCA cycle activation (CHO cells expressing NaCT; refers to: [14C]citric acid metabolism; concentration not given, with: antimycin A): inhibited
COc1cc(CNC(=O)C[C@H](C)CCC=C(C)C)ccc1OCc1cn(-c2ccc(F)cc2)nn1  growth percent (SF-268 CNS cancer cells; SRB; 10 µM, 48 h): 69.9%
COc1ccc(-c2ocnc2-c2cc(Br)c(OC)c(OC)c2)cc1OCCCC(=O)NO  time to inhibition (TFK1, EGI-1; cell proliferation; 0.1 to 1.0 µM): 24 h
COc1cc(CNC(=O)C[C@H](C)CCC=C(C)C)ccc1OCc1cn(-c2cccc(Cl)c2)nn1  growth percent (OVCAR-8 ovarian cancer cells; SRB; 10 µM, 48 h): 57.3%
CC(=O)OC[C@H]1O[C@@H](Sc2sc(C(=O)c3ccc(C)cc3)c(N)c2-c2nc3ccccc3s2)[C@H](OC(C)=O)[C@@H](OC(C)=O)[C@@H]1OC(C)=O  growth (HCC 2998; SRB; 10 µM, 48 h; baseline: untreated): 92.2%
CC(Cc1ccc(Cl)cc1)=C(c1ccc(Cl)cc1)c1ccc(OCCN2CCCCC2)cc1  growth inhibition (NCI-60 tumour cell lines; 10 µM, mean over cell lines): 10.9%
COc1cc(CNC(=O)C[C@H](C)CCC=C(C)C)ccc1OCc1cn(-c2ccc(C#N)cc2)nn1  growth percent (UACC-257 melanoma cells; SRB; 10 µM, 48 h): 68.7%
COc1cc(OC)cc(C2=C3C(C)=C(I)C(C)=[N+]3[B-](F)(F)n3c(/C=C/c4c[nH]c5ccccc45)c(I)c(C)c32)c1  dark over light toxicity ratio (HEp-2; light 1.5 J/cm^2): 74
Cc1cccc(O[C@H]2CCC[C@@H](C(C)CNCc3ccncc3)C2)c1 (relative stereo)  GSH level (MC65 Tet-Off cells; concentration not given, dose-dependent): increased
O=[N+]([O-])c1ccc(NC(=S)N/N=C/c2cccs2)cc1  cytotoxic concentration (HEL human lung fibroblasts; altered cell morphology, microscopy; confluent cultures): ≥ 20 µM
COc1cc(CNC(=O)C[C@H](C)CCC=C(C)C)ccc1OCc1cn(-c2ccccc2[N+](=O)[O-])nn1  growth percent (UACC-257 melanoma cells; SRB; 10 µM, 48 h): 71.2%
COc1ccc([C@@H]2CC(=O)c3c(O)cc(O[C@@H]4O[C@H](CO[C@@H]5O[C@@H](C)[C@H](O)[C@@H](O)[C@H]5O)[C@@H](O[C@H]5O[C@H](CO)[C@@H](O)[C@H](O)[C@H]5O)[C@H](O)[C@H]4O)cc3O2)cc1O  cell count (MRC5; trypan blue exclusion; 100 µg/mL, 72 h): 14600 ± 582
COc1ccc(-c2cc(C(F)(F)F)nc(NCc3ccc(Cl)cc3)n2)cc1OC  insulin secretion (rat INS-1 832/13 cells; 20 µM, no GLP-1, with: 15 mM glucose; baseline: DMSO): increased
Fc1ccc(Nc2nc(NC3CCCCC3)c3ccccc3n2)cc1F  isoprenaline inhibition of migration (HASM; scratch; 1 µM, with: isoprenaline 1 µM): increased
COCCNCC(=O)N(CCCCN)CC(=O)N(CC(=O)N(CC(=O)N(CCCCN)CC(=O)N[C@@H](CCCCN)C(=O)N[C@H](CCCCN)C(=O)N[C@@H](CCSC)C(=O)NCCCC[C@H](NC(=O)[C@H](CCSC)NC(=O)[C@@H](CCCCN)NC(=O)[C@H](CCCCN)NC(=O)CN(CCCCN)C(=O)CN(C(=O)CN(Cc1ccc2c(c1)OCO2)C(=O)CN(CCCCN)C(=O)CNCCOC)[C@H](C)c1ccccc1)C(N)=O)[C@H](C)c1ccccc1)Cc1ccc2c(c1)OCO2  cell migration (H358; scratch; 10 to 30 µM, 48 h): inhibited
CN1CCC(N[C@@H]2CCc3[nH]c4c(C(N)=O)ccc(-c5ccccc5Cl)c4c3C2)CC1  increase in apoptotic cells (HCT-116 wild type; annexin V-FITC/PI; 50 nM): 33.2%
C[C@@H]1O[C@@H](O[C@H]2[C@H](O[C@H]3CC[C@@]4(C)C(CC[C@]5(C)C4CC=C4C6CC(C)(C)CC[C@]6(C(=O)O[C@@H]6O[C@H](CO)[C@@H](O)[C@H](O)[C@H]6O)CC[C@]45C)[C@]3(C)CO)OC[C@H](O)[C@@H]2O)[C@H](O)[C@H](O[C@@H]2OC[C@@H](O)[C@H](O)[C@H]2O)[C@H]1O (stereo partly drawn)  glucose consumption (HepG2, palmitic acid-induced insulin resistance; 15 µM, 24 h): 12 ± 0.72 mM
COC1C=CC=C(C)C(=O)NC2=CC(=O)C(NCCN(C)C)=C(CC(C)CC(OC)C(O)C(C)C=C(C)C1OC(N)=O)C2=O (stereo not drawn)  protein level (Rh30; western blot, refers to: PAX3-FOXO1; concentration not given, 24 h): decreased
CC(=O)OC[C@H]1O[C@@H](Sc2nc3c4cnn(C(=O)CNc5ccc(C)cc5)c4ncn3n2)[C@H](OC(C)=O)[C@@H](OC(C)=O)[C@@H]1OC(C)=O  necrotic cells (HCT cells; annexin V-FITC/PI flow cytometry; concentration not given, 48 h): 7.09%
COc1ccc(NC(=O)COc2ccc(/C=C/C(C)=N/O)cc2OC)cc1  IL-1β expressing cells (SH-SY5Y; flow cytometry; 20 µM, with: amyloid beta 10 µM): 16.4%
CC(=C(c1ccc(Cl)cc1)c1ccc(OCCN2CCOCC2)cc1)c1ccc(Cl)cc1  growth inhibition (NCI-60 tumour cell lines; 10 µM, mean over cell lines): 1.51%
CCCCCCCCCCCCOc1c(O)cc(C(=O)OC2Cc3c(O)cc(O)cc3OC2c2cc(O)c(O)c(O)c2)cc1O (stereo not drawn)  protein level (U-87 MG; Western blot, refers to: BCL-XL; 50 µM, 24 h; baseline: untreated): decreased
COc1cc(CNC(=O)C[C@H](C)CCC=C(C)C)ccc1OCc1cn(-c2ccccc2F)nn1  growth percent (UACC-257 melanoma cells; SRB; 10 µM, 48 h): 94%
COC(=O)C1=CNC=C(C(=O)OC)C1c1ccc(F)c(C(F)(F)F)c1  store-operated calcium entry (mouse microglia; 1 µM, with: thapsigargin): decreased
CCNc1cc2c(cc1C)C1(c3cc(C)c(NCC)cc3O2)c2ccccc2C(=O)N1N=Cc1c[c-]c(-c2ccccn2)cc1.Cc1c(C)c(-c2ccc(-c3ccccc3)cc2)[c-](C)c1C.[Cl-].[Ir+3]  mitochondrial membrane potential (A549; JC-1 flow cytometry; up to 2 × IC50): no effect
CN(C(=NN=C(c1ccccc1)c1ccccn1)[S][Ga]([Cl])[Cl])C1CCCCC1  protein level (HepG2; western blot, refers to: TfR1; 5 µM, 24 h; baseline: vehicle): ~1.5 fold
[Ru+2].c1ccc(-c2cccc(-c3ccccn3)n2)nc1.c1ccc2nc(-c3ccc4ccccc4n3)ccc2c1.c1ccncc1  phototoxicity index (HL-60; baseline: dark IC50 over light IC50): 2.8
CC(C)=CCc1c(O)cc(CO)cc1O  glucose consumption (HepG2, palmitic acid-induced insulin resistance; 5.0 µM, 24 h): 4.24 ± 0.92 mM
Nc1c(S(=O)(=O)O)cc(Nc2cccc(S(N)(=O)=O)c2)c2c1C(=O)c1ccccc1C2=O  mRNA level (primary mouse articular chondrocytes; real-time PCR, refers to: Phlpp1; 25 µM): decreased

Repeated from above:
C=C1[C@H](O)CC(=C/C=C2\CCC[C@]3(C)[C@@H]([C@@H](C)CCCCO)CC[C@@H]23)C[C@H]1O  EC50 ratio (HL-60; cell differentiation, NBT reduction; baseline: compound over 1α,25-dihydroxyvitamin D3): 1.5
CCC12CCc3c(c4ccccc4n3C)CCN(CC3OC31)C2 (stereo not drawn)  IL-6 level (BV-2; ELISA; 25 µM, with: LPS; baseline: LPS alone): < 8.8%
CCc1ccc(-c2cn([C@@H]3O[C@H](CO)[C@@H](O)[C@H]3O)c3ncnc(N)c23)cc1  EC50 (HEK; cytotoxicity): > 200 µM
COc1cc(CNC(=O)C[C@H](C)CCC=C(C)C)ccc1OCc1cn(-c2ccc(Br)cc2)nn1  growth percent (OVCAR-3 ovarian cancer cells; SRB; 10 µM, 48 h): 105%
CC(=C(c1ccc(Cl)cc1)c1ccc(OCCN2CCCC2)cc1)c1ccc(Cl)cc1  growth inhibition (NCI-60 tumour cell lines; 10 µM, mean over cell lines): 21.6%
O=C(NCCCCc1ccccc1)n1c(=O)oc2cc(-c3ccc(F)cc3)ccc21  sphingosine level (SW-403 and RAW264.7; 0.1 to 20 µM, 3 h): decreased
